Measurements pooled from the literature.
Numbered parts are unrelated; each lists some results of a single study.

Study 1
Target: Phosphate system positive regulatory protein PHO4, full length, GST-tagged (PHO4, Saccharomyces cerevisiae, UniProt P07270, residues 1-312)
Chain of UniProt P07270 (whole entry, looked up): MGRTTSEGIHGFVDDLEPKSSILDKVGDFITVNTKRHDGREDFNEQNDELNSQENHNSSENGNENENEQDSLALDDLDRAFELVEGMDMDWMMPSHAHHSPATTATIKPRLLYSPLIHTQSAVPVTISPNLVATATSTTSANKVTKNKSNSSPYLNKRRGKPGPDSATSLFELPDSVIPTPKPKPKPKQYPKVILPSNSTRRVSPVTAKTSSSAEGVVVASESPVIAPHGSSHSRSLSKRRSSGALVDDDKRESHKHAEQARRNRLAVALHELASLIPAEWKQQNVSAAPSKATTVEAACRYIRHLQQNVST
Technique: competition protein-binding microarray
Molecule type: double-stranded DNA, one strand shown
Matrix: in vitro
Concentration: 2 µM
Setting: whole 60-bp probe, lowest competitor level
Added: Cbf1 competitor, 0.05 µM
Direction: higher = stronger binding
Shared flanks, not repeated: … GTCTTGATTCGCTTGACGCTGCTG
Sequence | fluorescence intensity [a.u.]
CGGGGTTAAGTTTGCTAGGTGGGTGGCTTGCAGCAG | 4640
GGTACTCGCTGTTTGCACGTGGCAAAGACCCCATTT | 16600
GGCACTAGTTTGTGTCCCGTGGTGATTGCTGTATAA | 8200
AGCCCCTATAGTAGCTTCGTGATGGGGTAGAACTTC | 3520
CATGAGAGCCATTTGCACGTTTACCGTTGAATTCCG | 10100
GTCAACCTGCTGCCTGGCGTGCTTTGACTCAGTACA | 6890
CTAACGAAGGTTTGTGACGTGGGTGACAAGCCAAGT | 5480
TGGCCCTTTGTTGGGCATGTGCTGCAAGAAAACTGG | 10700
CTAACGAAGGTTTGTCACAATACTTACAAGCCAAGT | 3710
AGTATGTTGGTCTTGGTCGTGCTGTAGGTTTTGAGT | 8750
ATTGGGCCATCAGCAGACGTGGCCTTGGCTGGACGC | 3690
AAATTACTAAGTTGTCACCTAACTTACCCCGTATGA | 3110
TGCGCAACAACTTTTCACGTGTTCTTATGTCTAGAA | 14000
AGGCACAACTTTCCGCACGTAGTGTTTTCAGCCCCA | 7350
TTCTCATAGAGAATCCACGTGTTGGTCTTTTGGATT | 14900
TAACTGGTTCAGAAACACGTTCCAACAATGGCTTGA | 10900
AGCTACGGAAACCGTCACACTTTTTTTCTGCAAGAA | 3810
TTATCTTCAACAAGAAACGTGACGGTACTCATAAAG | 11600
TTTTTAATTTCTTATCATGCTCAATGTCAACAACTT | 4990

Study 2
Target: RNA binding protein fox-1 homolog 2, RRM domain, GST-SBP tag (RBFOX2, Homo sapiens, UniProt O43251-10, residues 100-194)
Technique: RNA Bind-n-Seq
Molecule type: RNA
Matrix: in vitro
Concentration: 365 nM
Setting: natural RNA segment, single round, ends assumed
Baseline: no-protein control
Direction: higher = stronger binding
Shared flanks, not repeated: GGGAGUUCUACAGUCCGACGAUC … UGGAAUUCUCGGGUGCCAA
Construct (chain): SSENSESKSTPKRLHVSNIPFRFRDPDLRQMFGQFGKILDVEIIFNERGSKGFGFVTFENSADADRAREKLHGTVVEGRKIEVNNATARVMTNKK
Sequence | RBNS enrichment (R)
UCAUAUCUGGUUUUGUUUUUAUUUUUUUAUCAUGAACAUUAAAUGUGAUGAUGAUUUCUUUUCCCUGCACACAUCUUUCCGGUGCAAUAUCUAUCAAUUGUGAAUCUGGC | 0.638
UGGUGCCAGCACGGGAUCCCUGAAGUGACUCAGCCAGGCAGACAUGAGACAUGGCGGAGUGUCCAAAUGGAUCCUUUAUUGGUGGUAGAGCAAAAAAACCCAAACACGAU | 0.306
CUUGAGAAUUAAGAGCUGGCAGCUGCUGAUGGUGUUUCCCAACCCCCCUCACUUCCCAAGACAACCCCCAGCUUCAGGUCCUCAUGGGGAGGGGAGGGCACGUUCUUGAC | 0.684
ACCAAAAUUUUCCUUAUCCACAAUGUCCCUUCUGUCUCUUCCACUUUACAGUGGACUCGGCCACUGUGCAUAGGCUUCUCUGCUCUCCAUCAAAUCACUUCCACUUUCCU | 0.943
UCUUUGCUAGUUGGAGUGCUUGUUUACUAAGCAUGUGCCGUCGUAGGUAUUAGUGCUAGUCUCAGAUAGGUGCUUCCCCUGAGGUGCAGGGGAAGACCAAAGUUUGCAAC | 2.3
GAUUGGUUGACGUGAGUUGGUUGAGUCUCUGGAGCAUCAGUUUUCAACUUCUGGAUCGCAACCCCUUUGGGGGUGGGUAGGUCACAUAACAGAUAUGCUGACUAACAGAG | 0.525
AAAACAACUUGGUAUUUAAGUAUGAAGUGGAUGAAAUGUUUAUUUAUUUAAGGUGAAAGCAUUUGACCCAGGGUGUCUUCAUCUUCAAUUUGGGUUUAAUGUUAUAGAAA | 0.701
GCCGUGUGUCAAGGAGAUGCCCACUGGGGCUCCAACCGUCUUCAGACACUGUGGAAGUGGGAGGGUAGCCUGGCCCUGUCUAGGAGAAAGGCCCUGCGUGGUCAGGCCUG | 0.503

Study 3
Target: RING finger protein unkempt homolog, zinc fingers 1-6, SBP tag (UNK, Homo sapiens, UniProt Q9C0B0, residues 30-357)
Chain of UniProt Q9C0B0 (30-357, looked up): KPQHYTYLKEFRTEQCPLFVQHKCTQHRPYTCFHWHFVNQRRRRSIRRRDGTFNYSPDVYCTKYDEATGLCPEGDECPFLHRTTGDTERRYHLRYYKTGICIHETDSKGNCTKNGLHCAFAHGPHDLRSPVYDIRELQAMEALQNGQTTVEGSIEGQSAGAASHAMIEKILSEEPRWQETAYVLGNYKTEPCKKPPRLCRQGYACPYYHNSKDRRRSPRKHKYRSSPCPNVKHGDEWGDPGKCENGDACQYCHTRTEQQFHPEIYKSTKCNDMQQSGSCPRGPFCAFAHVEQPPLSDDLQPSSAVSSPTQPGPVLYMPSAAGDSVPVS
Technique: RNA Bind-n-Seq
Molecule type: RNA
Matrix: in vitro
Concentration: 100 nM
Setting: RNA with constant flanks, vertebrate orthologous sites, ends assumed
Baseline: input RNA pool
Direction: higher = stronger binding
Shared flanks, not repeated: GGGAGUUCUACAGUCCGACGAUC … CAACAGAGGAUUGAGCAUCA
Sequence | bound/input enrichment [ratio]
CAGCCGAUUCUCUCAUAGGGAGAGCUGCACACAUUGCUGUUCUUGAUUCAGAAAUAUUUUUAGAAAAGUUCUUUCUGGUUGCUGCCCUAAAAUAUUUCCAGUAGAAGAAAAGCAUUUUAA | 0.568
AUUCAAACCCGUGGUGCCCUGGCCUCAUGUGGAAGGCGUAGAAGUGGACUUGGAGUCUAUUCGAAGAAGGAACAAGGCCAGACAUGAACAAGAGCGCCGCCCCGGAGGAGAGAACCAGAA | 0.198
GUUAGGUCAUGACCCAUAUAGGUUAGGUCAUGAUGCCUAUAGGUUAGGGCAGGACCCCUAUAGAUUAGGUCAUGACCCCUAUAGACUAACUCCUGAUCCCUAUAGGAUGUCGCCUAGACC | 1.03
AGUUGAUGUUUUAAAGAAUCAUUUGGUAAAAGAAGGUCGAGUUGAUGAAGAAAUUGCACUUAGAAUUAUUAAUGAGGGUGCUGCCAUCCUUCGGAGAGAGAAAACCAUGAUAGAAGUAGA | 0.741
UGGAAGAAAUGGACAUUGGCAUGAAAUCAGGCUCUAGCACAAGCAGAUCUAGUAAAAAGACUGCCAUCUGCGCCAGCUGCUGUGCACUUUAAUAGAGGCAGCUGUGUUUGAGGAACAGAA | 0.355
CGUGCUUAUGCUCUUCUAUGAAAGAGAUGAACUGGGGAGAACUGUCUCCUUUUUAUAGGUUAGUUUCUUUGUAAAUUAUGACCAAAAAUAUUUUGCUAUUUCUUUCUUUGUAUAUGGACA | 0.677
UAAUUCAAUGGUUGAGGGUUCAGAACUCAAAAAGGUUCGCUCCAACUCUAGAAUUUAUCACAGGUACUUUUUACUGGAUGCCGACAUGCAGAGCCUAAGGUGGGAGCCAUCAAAGAAGGA | 0.207
UUCAUAAUCACGCUAAUCGUAAUCUGGAGACGUGUAACAUUGUGUAGCCUUUUGUAUAAAUAGACAGAUAGAAAUGGUCCGAUUAGUUUCCUUUUUAAUAUGCUUAAAAUAAGCAGGUGG | 1.92

Study 4
Target: Sal-like protein 4, full length isoform A (SALL4, Homo sapiens, UniProt Q9UJQ4, residues 1-1053)
Chain of UniProt Q9UJQ4 (whole entry, looked up): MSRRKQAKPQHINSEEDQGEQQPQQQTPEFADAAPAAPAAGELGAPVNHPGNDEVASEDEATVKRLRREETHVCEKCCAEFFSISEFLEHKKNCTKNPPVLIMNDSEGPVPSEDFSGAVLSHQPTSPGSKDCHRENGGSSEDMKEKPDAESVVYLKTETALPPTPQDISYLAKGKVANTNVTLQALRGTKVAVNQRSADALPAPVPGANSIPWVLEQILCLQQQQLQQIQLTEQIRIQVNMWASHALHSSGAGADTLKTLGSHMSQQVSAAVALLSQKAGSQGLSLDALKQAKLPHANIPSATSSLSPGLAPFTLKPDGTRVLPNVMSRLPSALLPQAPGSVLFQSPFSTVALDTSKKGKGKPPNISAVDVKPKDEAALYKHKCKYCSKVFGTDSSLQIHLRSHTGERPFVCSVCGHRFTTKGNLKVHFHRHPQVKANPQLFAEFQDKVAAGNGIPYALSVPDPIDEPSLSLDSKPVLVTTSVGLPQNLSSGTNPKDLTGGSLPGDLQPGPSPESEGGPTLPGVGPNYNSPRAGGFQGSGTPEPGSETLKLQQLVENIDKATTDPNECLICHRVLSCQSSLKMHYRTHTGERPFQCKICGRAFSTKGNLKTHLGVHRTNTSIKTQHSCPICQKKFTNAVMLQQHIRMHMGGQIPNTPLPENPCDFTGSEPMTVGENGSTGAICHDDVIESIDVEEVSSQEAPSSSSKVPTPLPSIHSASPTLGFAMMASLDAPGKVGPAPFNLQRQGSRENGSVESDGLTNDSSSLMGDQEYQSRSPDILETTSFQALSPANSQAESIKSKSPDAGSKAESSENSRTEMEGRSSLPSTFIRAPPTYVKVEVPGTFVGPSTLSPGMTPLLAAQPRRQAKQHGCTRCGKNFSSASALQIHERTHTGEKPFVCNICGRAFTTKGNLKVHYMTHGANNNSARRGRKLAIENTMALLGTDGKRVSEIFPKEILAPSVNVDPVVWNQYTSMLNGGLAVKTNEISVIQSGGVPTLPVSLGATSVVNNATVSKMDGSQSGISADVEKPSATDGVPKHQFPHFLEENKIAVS
Technique: universal PBM
Molecule type: double-stranded DNA, one strand shown
Matrix: in vitro
Concentration: 600 nM
Setting: 8-mer, flanks averaged, mean of replicates
Direction: higher = stronger binding
Sequence | E-score
AAGCGCCA | -0.141
ACCCCGCA | -0.277
AGCTTAGC | -0.0939
AGAAAGGA | -0.00169
AGTGAGCA | 0.0161
AGTTGACA | 0.137
CAAGTCCG | -0.206
CAGCAAAC | -0.0935
AAATAGCG | 0.193
TACCGAAA | 0.122
AAGAACAA | 0.241
GCATGCGA | 0.0847
CATGGATA | 0.122
ATAAGGAT | 0.265
ACCAGCAA | 0.00417
TAGATTAA | 0.277
GCCATAAC | 0.1
CACGTGAA | 0.0357
CATATTCC | 0.238
CGCTTCGC | -0.224
CATCAGGC | -0.17
AAAAACCG | -0.0203
CACAACTG | -0.0623
ATACGAAG | 0.199
CCAGTTCG | -0.122

For quick reference, copied from above (study 1):
Sequence | fluorescence intensity [a.u.]
AGTATGTTGGTCTTGGTCGTGCTGTAGGTTTTGAGT | 8750
AGCCCCTATAGTAGCTTCGTGATGGGGTAGAACTTC | 3520
AAATTACTAAGTTGTCACCTAACTTACCCCGTATGA | 3110
AGGCACAACTTTCCGCACGTAGTGTTTTCAGCCCCA | 7350
GTCAACCTGCTGCCTGGCGTGCTTTGACTCAGTACA | 6890
TAACTGGTTCAGAAACACGTTCCAACAATGGCTTGA | 10900
ATTGGGCCATCAGCAGACGTGGCCTTGGCTGGACGC | 3690
GGTACTCGCTGTTTGCACGTGGCAAAGACCCCATTT | 16600
TGCGCAACAACTTTTCACGTGTTCTTATGTCTAGAA | 14000
